Measured values collected from several papers.
A part holds a random share of what one study measured.

Block 1 — method: universal PBM; form: double-stranded DNA, one strand shown; medium: in vitro; tested at: not given; reading: higher = stronger binding
Target: Sal-like protein 4, full length isoform B (SALL4, Homo sapiens, UniProt Q9UJQ4-2, residues 1-616)
Notes: 8-mer, flanks averaged, mean of replicates
| Sequence | E-score |
| --- | --- |
| GTGAAAGA | 0.187 |
| CGGAGGTC | -0.232 |
| CTAGCCAC | -0.203 |
| GCCCAGAC | -0.366 |
| AATAGTTG | 0.28 |
| CTGTGAGC | -0.0813 |
| CCGATCAA | -0.0542 |
| AGCCACCA | -0.0938 |
| AAAGATGG | 0.0889 |
| CATGAGCA | -0.0755 |
| GCGAGATA | 0.0876 |
| CCCAGGAC | -0.404 |
| AGCATCCT | -0.111 |
| GTTTGACA | 0.139 |
| TATGGGAA | 0.178 |
| CCCTTTCA | -0.0311 |

Block 2 — method: protein binding microarray; form: double-stranded DNA, one strand shown; medium: in vitro; tested at: not given; reference: not given; reading: higher = stronger binding
Target: Histone acetyltransferase KAT6A, winged helix 1, GST fusion (KAT6A, Homo sapiens, UniProt Q92794, residues 1-85)
Notes: 8-mer, flanks averaged, mean of 2 arrays, mostly near background
Construct (chain): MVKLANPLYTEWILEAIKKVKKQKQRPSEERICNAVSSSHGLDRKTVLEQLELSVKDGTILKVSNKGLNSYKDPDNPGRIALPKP
| Sequence | E-score |
| --- | --- |
| CAATTCAC | -0.0281 |
| CCTTGGCC | -0.146 |
| GACAGTAC | -0.135 |
| TCCCTACA | -0.0642 |
| CCACACCA | -0.119 |
| CCCTAACG | 0.0677 |
| GGGACCAA | -0.0596 |
| ATTTCTAC | -0.145 |
| GATTGGCA | -0.211 |
| AACCTAGC | -0.0986 |
| GGTATGTA | -0.113 |
| ATATCTCC | 0.0724 |
| AGCAGCTC | -0.142 |
| ACTGGTAC | -0.0595 |
| CCTTCGTA | -0.134 |
| AACATCCT | 0.0243 |
| AAGGCGCT | 0.28 |
| ACCCGTCT | 0.214 |
| GAGAGCTC | -0.04 |
| CCTCTCAC | -0.234 |
| AGATATAG | -0.145 |
| ATAAAAAG | -0.103 |
| AAACGATG | 0.084 |
| CAGATTTA | -0.153 |
| GGGCGTTA | 0.00724 |

Block 3 — method: RNA Bind-n-Seq; form: RNA; medium: in vitro; tested at: 365 nM; reference: no-protein control; reading: higher = stronger binding
Target: RNA binding protein fox-1 homolog 2, RRM domain, GST-SBP tag (RBFOX2, Homo sapiens, UniProt O43251-10, residues 100-194)
Notes: natural RNA segment, single round, ends assumed
Target sequence (chain): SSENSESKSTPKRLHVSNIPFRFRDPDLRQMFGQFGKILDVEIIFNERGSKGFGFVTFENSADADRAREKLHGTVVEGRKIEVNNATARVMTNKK
| Sequence | RBNS enrichment (R) |
| --- | --- |
| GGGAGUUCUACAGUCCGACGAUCCUCAGGUUCUUUCCAUGCAGACUCCUCAGAUCUGAACACAGUUUAGUGCUUUACAUGCUGUGCUCUUUGAAGAGAUUUCAACAAGAAUAUUGUAUGUUAAAGCAUCAGAGUGGAAUUCUCGGGUGCCAA | 0.244 |
| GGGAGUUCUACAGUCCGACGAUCGUUUUUGUUUUCUCUUCCAAGGGCCGUCCCGUUGUGUUAGGAAGGGUGAGUGGCUGGUUCCAGGGUGGGCCGGUGCCAGCUCCGGGGUGGACUGAACAGCGGCGGCUGUCUGGAAUUCUCGGGUGCCAA | 1.07 |
| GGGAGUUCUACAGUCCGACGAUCGCUCCGCCUCAGCCUUGAGAACUCCACGUGGGCUGGGUGGGAAGGUGCUGACGAUUUUCACACUGUGUUUACCACUCCAUCACCUCUCAACCUUUGCUUCGACAGGUCUUUGGAAUUCUCGGGUGCCAA | 0.337 |
| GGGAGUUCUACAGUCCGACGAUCAUCUCCUUCCUGAGGAGCCGGGAGGCUGGACCAGUCCCGUCGUGCAGUCAGGUGGGCGGUGUGUCUUUCCAGAAGGUCACGUGGAAAUGUCUCGGGACUUGGGUCCCGGAUGGAAUUCUCGGGUGCCAA | 0.213 |
| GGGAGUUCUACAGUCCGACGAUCGUAAACGAUACAGGGAACUGGUUGAAGAGAUUGGAAUUUUAUUUAGUUGGCUUUGUUUUCCUUAAAGGAUAAAACUUGCAUUGGACAAUCAAGGACAAUGAAGCCUCACCUGGAAUUCUCGGGUGCCAA | 0.987 |
| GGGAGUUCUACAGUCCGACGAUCGAAUGUAAUUUAUUGGGGCACCCUCUGCUGCUUCCCUGACUCCCUGCCCUACCUAAUUGCACUUCCAGUCCUGUCUGUCCACAUAUGUACGUGUAUAUAAUUAUACAUAUUGGAAUUCUCGGGUGCCAA | 1.09 |
| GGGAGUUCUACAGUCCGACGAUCGAGAAACCGUGCUCUCUAAGUUUGUUCUCUGCUUUGACCCCACUUUUAUAGCUGUCUUUGCAUCUUUGAUAAAACUUCCACUUGAAUUUGGCACUGAUAAUAAUUAUUGCUGGAAUUCUCGGGUGCCAA | 0.559 |
| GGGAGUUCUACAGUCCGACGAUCUCAGGGCCAAGCGGGGGCGUGGCUGGCCCUUCAGGUCAGGCCAGUGGGCCUGGUAGCACAUGUCUGUCCUCAGCCGGACAGAUGCUUUCUCUCCUGGUUUGCAGCUGUCUUGGAAUUCUCGGGUGCCAA | 1.31 |
| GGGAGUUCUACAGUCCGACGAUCAUUAAGUAGUAACAGAAGUCUGAACAAUUGGAUAAAUUUGACUUCCAAGACAGCUAAACUUUUCAACUGCAAUUUUAAAAACUACACUACACUGUUAUAGUUAAUCUGACUGGAAUUCUCGGGUGCCAA | 0.348 |
| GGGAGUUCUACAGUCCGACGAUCGUAGGGUUUCUAGGUAAUUUUUACAGAAUUGCUUGUUUGCUUCAACUGUCUCCUACCUCUGCUCUUGGAGGAGAUGGGGACAGGGCUGGAGUCAAAACACUUGUAAUUUUUGGAAUUCUCGGGUGCCAA | 0.298 |
| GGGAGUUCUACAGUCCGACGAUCUACAUUAGUUUUUACACUAAAACUUUACAAGAUAAAAUUGGACUUCAUUUAGUAUCUUUUUAACAGAAUUACUUGGAAUAAUGAGAUACAAUAAUCAUAUCUCUUUUGACUGGAAUUCUCGGGUGCCAA | 0.358 |
| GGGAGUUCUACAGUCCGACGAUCCGCCCGCCAUCGUGCCCAGCUAAUUUUUAUAUUUUUAGUGGAGACAGGGUUUCGGGUUUCACCAUGUUGGCCAGGUUGAUCUUGGACUCCUGACCCCAGGUGAUCCACCUUGGAAUUCUCGGGUGCCAA | 0.288 |

Block 4 — method: protein-binding microarray; form: double-stranded DNA, one strand shown; medium: in vitro; tested at: 250 nM; notes: 60-bp whole probe; added: salmon DNA 0.4 mg/ml; reference: random background probes; reading: higher = stronger binding; constant ends, left off below: GCCTAGCAC … GTCTTGATTCGCTTGACGCTGCTG
Target: Interferon regulatory factor 7, full length, phosphomimetic (IRF7, Homo sapiens, UniProt Q92985, residues 1-503, S101K/S471D/S472D/S475D/S476D/S477D/S483D/S484D/S487D)
Residues (chain): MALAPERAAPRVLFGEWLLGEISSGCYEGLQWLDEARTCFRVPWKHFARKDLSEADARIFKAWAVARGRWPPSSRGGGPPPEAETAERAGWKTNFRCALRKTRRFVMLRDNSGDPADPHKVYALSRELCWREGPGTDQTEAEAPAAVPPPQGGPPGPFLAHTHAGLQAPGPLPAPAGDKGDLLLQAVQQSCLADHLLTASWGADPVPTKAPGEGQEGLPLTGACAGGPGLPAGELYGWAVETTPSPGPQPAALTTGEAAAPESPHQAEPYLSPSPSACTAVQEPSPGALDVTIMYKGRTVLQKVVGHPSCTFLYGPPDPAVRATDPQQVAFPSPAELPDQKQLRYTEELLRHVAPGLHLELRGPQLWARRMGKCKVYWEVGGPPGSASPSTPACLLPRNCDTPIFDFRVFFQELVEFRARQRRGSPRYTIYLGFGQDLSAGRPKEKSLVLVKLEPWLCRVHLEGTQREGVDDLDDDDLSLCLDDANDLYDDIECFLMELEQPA
| Sequence | log fluorescence [z-score] |
| --- | --- |
| GACGGTTTCGGGTCCGGGACGTGCTAG | 6.94 |
| GTAGGACTGGGTTTCGGTTAGTGCTAG | 6.18 |
| TTAGGTCTCAGTCTCGGTTAGTGCTAG | 1.61 |
| TGAGGTTTCGGTTCCGGTTAGTGCTAG | 12.1 |
| GACGGTCTACTTATCCTGACGTGCTAG | -0.0692 |
| GTAGATATCAGTATCGATTAGTGCTAG | 0.459 |
| GTCGGTTTCGGGTATCGGGACGTGCTA | 8.4 |
| GACGATATCAGTCTAGAGACGTGCTAG | -0.329 |
| TCACTTCTATAGGCTAGAACTGTGCTA | 0.385 |
| GGCATTTTTTTTATCAATCAGTGCTAG | -0.216 |
| GACGAACTGAGTGTCGAGACGTGCTAG | -0.372 |
| GACGGTCTCCTTTTCCTGACGTGCTAG | 1.11 |
| TCATGCATCTGATTTCTCACTGTGCTA | -0.222 |
| TTAGGACTGGGTTTCGATTAGTGCTAG | 7.56 |
| CTGGTTTTTACTTTCTGAATGTGCTAG | 1.98 |
| TTAGATATCAGACTAGATTAGTGCTAG | 0.171 |
| TCACCATTGGTCTTCACACTGTGCTAG | -0.152 |
| TTAGACATCGGGTTTCGATTAGTGCTA | 6.42 |
| TTAGTTCTCCTACTGCTTTAGTGCTAG | 0.743 |
| TTAGGACTTCTTTTCCTTTAGTGCTAG | 1.15 |
| GACGGTATCGGGCATCGGGACGTGCTA | -0.645 |
| GCCGGACTGCTTTTCCTGACGTGCTAG | 0.0549 |
| TTTGGACTGGGACTGGGTTAGTGCTAG | -0.241 |
| TTAGAACTGGGGTATCGAGTAGTGCTA | -0.493 |
| TTCGAACTGAGACTGGATTAGTGCTAG | -0.225 |

Block 5 — method: aptamer microarray, sandwich; form: DNA with 2'F-ANA; medium: in vitro; tested at: 200 nM; added: Cy3 exosite-II aptamer, 400 nM; reading: higher = stronger binding; sequence: GGTTGGTGTGGTTGG
Target: Prothrombin, mature alpha-thrombin (F2, Homo sapiens, UniProt P00734)
Notes: whole 15-mer aptamer, many near background
| Modification | mean fluorescence intensity |
| --- | --- |
| 2'F-ANA at 1 4 5 7 10 11 13 | 47.7 a.u. |
| 2'F-ANA at 1 3 5 6 7 8 12 14 15 | 51.4 a.u. |
| 2'F-ANA at 3 6 11 12 13 | 1020 a.u. |
| 2'F-ANA at 2 6 7 9 10 13 14 15 | 79.7 a.u. |
| 2'F-ANA at 3 4 5 6 7 9 10 12 13 | 51.4 a.u. |
| 2'F-ANA at 1 3 5 14 | 40.4 a.u. |
| 2'F-ANA at 1 2 3 4 6 7 10 12 13 15 | 61.8 a.u. |
| 2'F-ANA at 1 4 5 15 | 52.7 a.u. |
| 2'F-ANA at 5 8 9 11 12 13 14 | 48.5 a.u. |
| 2'F-ANA at 1 2 3 6 7 9 14 15 | 78.3 a.u. |
| 2'F-ANA at 1 3 7 8 10 12 13 14 15 | 68 a.u. |
| 2'F-ANA at 1 2 3 6 7 8 9 12 15 | 437 a.u. |
| 2'F-ANA at 3 4 5 6 10 11 14 15 | 47.8 a.u. |
| 2'F-ANA at 6 8 10 12 13 14 15 | 100 a.u. |
| 2'F-ANA at 1 2 4 6 7 9 14 15 | 51 a.u. |
| 2'F-ANA at 4 5 7 10 11 13 15 | 90.5 a.u. |
| 2'F-ANA at 1 2 7 9 | 187 a.u. |
| 2'F-ANA at 1 2 5 7 8 10 15 | 49.5 a.u. |
| 2'F-ANA at 4 5 7 8 10 11 12 15 | 79.5 a.u. |
| 2'F-ANA at 1 3 4 5 6 12 13 14 15 | 92.4 a.u. |
| 2'F-ANA at 1 4 7 10 13 | 58.5 a.u. |
| 2'F-ANA at 1 3 4 5 8 9 10 11 | 46.5 a.u. |
| 2'F-ANA at 1 3 4 12 13 14 | 79 a.u. |
| 2'F-ANA at 2 7 8 9 11 12 14 | 172 a.u. |
